Assay results of several laboratories.
Every numbered part comes from another study and shows a few of its results, in no order. Positions count from the first letter of the parent shown.
Chain of UniProt P36896 (whole entry, looked up): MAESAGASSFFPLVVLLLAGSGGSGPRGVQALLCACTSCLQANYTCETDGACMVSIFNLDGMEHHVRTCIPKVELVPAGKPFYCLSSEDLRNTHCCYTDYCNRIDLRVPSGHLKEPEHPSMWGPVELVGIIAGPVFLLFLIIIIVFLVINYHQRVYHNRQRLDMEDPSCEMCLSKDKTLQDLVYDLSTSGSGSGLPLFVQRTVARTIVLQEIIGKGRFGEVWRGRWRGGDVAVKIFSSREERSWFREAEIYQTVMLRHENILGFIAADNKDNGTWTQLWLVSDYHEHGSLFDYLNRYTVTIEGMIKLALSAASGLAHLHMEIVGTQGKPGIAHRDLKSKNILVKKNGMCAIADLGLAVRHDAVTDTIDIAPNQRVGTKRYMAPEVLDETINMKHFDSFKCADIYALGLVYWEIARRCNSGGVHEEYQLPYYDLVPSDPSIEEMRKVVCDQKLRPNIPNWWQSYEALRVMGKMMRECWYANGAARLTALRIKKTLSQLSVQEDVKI
Chain of UniProt Q96L34 (whole entry, looked up): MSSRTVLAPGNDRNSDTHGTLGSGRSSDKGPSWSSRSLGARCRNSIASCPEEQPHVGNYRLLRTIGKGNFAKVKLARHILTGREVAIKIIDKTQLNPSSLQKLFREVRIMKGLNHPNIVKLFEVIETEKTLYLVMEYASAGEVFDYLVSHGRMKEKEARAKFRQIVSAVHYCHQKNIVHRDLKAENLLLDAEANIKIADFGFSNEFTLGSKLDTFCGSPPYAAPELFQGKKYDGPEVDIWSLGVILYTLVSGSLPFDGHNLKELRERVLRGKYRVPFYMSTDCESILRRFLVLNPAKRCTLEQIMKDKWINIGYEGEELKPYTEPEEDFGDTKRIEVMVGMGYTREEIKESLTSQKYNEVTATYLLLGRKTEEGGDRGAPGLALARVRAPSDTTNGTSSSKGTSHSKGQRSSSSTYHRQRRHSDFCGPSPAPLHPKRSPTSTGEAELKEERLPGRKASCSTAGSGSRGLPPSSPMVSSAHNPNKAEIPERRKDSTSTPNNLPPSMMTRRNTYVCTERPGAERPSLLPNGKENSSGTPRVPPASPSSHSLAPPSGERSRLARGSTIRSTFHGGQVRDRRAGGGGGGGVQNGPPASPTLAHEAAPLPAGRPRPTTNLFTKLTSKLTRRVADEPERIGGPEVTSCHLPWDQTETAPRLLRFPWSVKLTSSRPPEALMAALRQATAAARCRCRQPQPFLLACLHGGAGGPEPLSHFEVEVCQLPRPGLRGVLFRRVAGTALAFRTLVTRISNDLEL

Block 1
Target: Sal-like protein 4, full length isoform A (SALL4, Homo sapiens, UniProt Q9UJQ4, residues 1-1053)
Chain of UniProt Q9UJQ4 (whole entry, looked up): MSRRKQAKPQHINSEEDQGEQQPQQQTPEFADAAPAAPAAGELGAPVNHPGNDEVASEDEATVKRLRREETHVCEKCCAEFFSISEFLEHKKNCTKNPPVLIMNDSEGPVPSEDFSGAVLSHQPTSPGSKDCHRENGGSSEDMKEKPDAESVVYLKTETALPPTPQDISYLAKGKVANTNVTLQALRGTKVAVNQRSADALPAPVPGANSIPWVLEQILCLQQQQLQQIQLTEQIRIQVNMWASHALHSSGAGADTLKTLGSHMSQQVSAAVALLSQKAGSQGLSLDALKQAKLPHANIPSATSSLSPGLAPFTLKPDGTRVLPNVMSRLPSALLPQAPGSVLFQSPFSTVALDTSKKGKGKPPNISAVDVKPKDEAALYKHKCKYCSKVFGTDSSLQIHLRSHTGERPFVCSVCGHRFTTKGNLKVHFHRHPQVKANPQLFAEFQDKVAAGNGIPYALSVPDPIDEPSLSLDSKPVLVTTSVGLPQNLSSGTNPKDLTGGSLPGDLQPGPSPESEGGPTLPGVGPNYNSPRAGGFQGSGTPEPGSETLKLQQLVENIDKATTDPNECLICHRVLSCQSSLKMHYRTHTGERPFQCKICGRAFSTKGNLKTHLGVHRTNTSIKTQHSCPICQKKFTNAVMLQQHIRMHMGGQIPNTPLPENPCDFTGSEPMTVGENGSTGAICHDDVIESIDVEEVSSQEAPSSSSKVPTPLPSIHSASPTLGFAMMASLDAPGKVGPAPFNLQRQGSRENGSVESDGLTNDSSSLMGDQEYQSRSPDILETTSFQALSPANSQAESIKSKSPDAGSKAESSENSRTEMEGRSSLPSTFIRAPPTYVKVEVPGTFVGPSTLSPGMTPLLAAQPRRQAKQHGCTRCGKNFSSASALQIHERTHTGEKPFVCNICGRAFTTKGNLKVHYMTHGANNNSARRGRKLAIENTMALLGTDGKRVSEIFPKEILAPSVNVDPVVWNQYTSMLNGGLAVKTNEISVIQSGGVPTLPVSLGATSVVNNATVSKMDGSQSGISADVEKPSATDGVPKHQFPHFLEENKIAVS
Method: universal PBM
Molecule type: double-stranded DNA, one strand shown
Matrix: in vitro
Concentration: 600 nM
Setting: 8-mer, flanks averaged, mean of replicates
Direction: higher = stronger binding
Oligonucleotide | E-score
TCCCCGGA | -0.338
CTTTGCAC | 0.112
CGACTTAC | -0.136
GAGGACCA | -0.224
TCAAGCGA | 0.0634
CGGATAGA | 0.0425
GATTCTGA | 0.064
CCAATAGG | 0.0124

Block 2
Compound: Nc1cnc(N2CCc3cc(S(=O)(=O)Nc4c(F)cc(Cl)cc4F)cc(N4CCCC4=O)c32)nc1
Read-out: cell-free assay
Method: competition with immobilised ligand
Concentration: 1 µM
target | remaining binding [%]
MARK4 (Homo sapiens, UniProt Q96L34) | 79
ACVR1B (Homo sapiens, UniProt P36896) | 96
SRC (Homo sapiens, UniProt P12931) | 99

Block 3
Target: FOSL2, bZIP domain (human)
Method: DHFR protein complementation
Matrix: yeast
Setting: single substitutions, most at no-binding floor
Relative to: wild-type JUN-FOS pair
Direction: higher = stronger binding
Starting sequence: JUN, bZIP domain (human); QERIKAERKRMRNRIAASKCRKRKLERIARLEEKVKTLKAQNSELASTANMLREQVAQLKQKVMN; partner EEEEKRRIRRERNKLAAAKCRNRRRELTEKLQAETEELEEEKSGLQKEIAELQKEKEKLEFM
Variant | binding fitness
K39A | -0.354 natural log
T37W | 0.0356 natural log
M51I | 0.0957 natural log
Q41F | -0.708 natural log
K39L | -0.399 natural log
Q41A | -0.0121 natural log
R53A | -0.189 natural log
L38G | -0.754 natural log

Mixed results
SMILES | test system | measurement | result
CCOC(=O)[C@@H]1CSCC(=O)N[C@H](CC)C(=O)N(C)[C@@H](C)C(=O)N[C@@H](CC(C)C)C(=O)N2CCC[C@H]2C(=O)N(CC)CC(=O)N[C@@H](CC(C)C)C(=O)N(C)[C@H](C)C(=O)N[C@@H](CC(C)C)C(=O)N1C | hydrocarbon/water | logD | -0.348

Some of these lines once more (block 1):
Oligonucleotide | E-score
GATTCTGA | 0.064
CGACTTAC | -0.136
